Assay results collected from several papers.
Parts stem from different laboratories: compare values within a part only.

Set 1 — method: RNA Bind-n-Seq; form: RNA; matrix: in vitro; tested at: 365 nM; baseline: no-protein control; direction: higher = stronger binding
Target: RNA binding protein fox-1 homolog 2, RRM domain, GST-SBP tag (RBFOX2, Homo sapiens, UniProt O43251-10, residues 100-194)
Setting: natural RNA segment, single round, ends assumed
Shared flanks, not repeated: GGGAGUUCUACAGUCCGACGAUC … UGGAAUUCUCGGGUGCCAA
Target sequence (chain): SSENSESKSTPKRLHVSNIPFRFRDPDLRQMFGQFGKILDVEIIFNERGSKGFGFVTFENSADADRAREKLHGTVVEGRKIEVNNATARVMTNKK
| Strand | RBNS enrichment (R) |
| --- | --- |
| CUCUGCAAGUGGAAUGUUACCCUGUGGGUGGCUGGGUCCAACAGGGUCCCUCCUGUCCCCCCUCUUCAUCCCUUGACAAAUGGGCACCAGGCUUCUGCUCUCCUCAAAGC | 0.639 |
| UGCGCUGUCCCGGCCGCAAGAGCGGGGCCGCCCCGCCGAGGUUUGUAGCAGCCGGGAUGUGACCCUCCAGGGUUUGGGUCGCUUUGCGUUUGUCGAAGCCUCCUCUGAAU | 3.17 |
| CUAUAUGCAAGUUUUGUGAAACCUGCCUCCUUCCCGUGCAAUGUGUCCCUCCUCACAAGUGCUUAGUUUCUGUUAACUAGAAGUAUCAUUCUUGGGUGGAAAUAGGUCUC | 0.349 |
| UUUAAAAUUUGAGUAUUUUGGAUAUCAGUGUUCCUCAUGAAGAUAUACAUGGAUAUUCAAUUUUGAUGGCUUCCAGAUUUGUAAGAUUGUAUGUUGUAUAUACCAUUCUA | 0.44 |
| ACCCAGUGAGGCCUUAUUCCUCCCUUCCCCCCAAAACUGACACCUUUGUUAGCCACCUCCCCACCCACAUACAUUUCUGCCAGUGUUCACAAUGACACUCAGCGGUCAUG | 0.543 |
| CAAAUGUGAGUCUCCUGAUCAAUUUAAAUGUUUGAGAUUGAAUAUCUAAUUAAUAAUUCAAUUUUGAAAAUUCUCAAAAAAAUUUGAGGAUUUAAGCCUAGGGAUUUUAU | 1.24 |
| AUUGGGUUACUGUAUAAGGAAAAUGGCAGGGGAGUUGUGGGAAGCUUGUCUUUACAAAAUAUAAUUGAUUAAGAUAUGUCAAGACCUACAUUGUCUAAGCACCGGCAAAU | 0.395 |
| UCCUUCGAUAAUAUGAAACAUUAAUUUACAAGGACCCGUUAGGGCUUCAAUGAUGCUGAGUCUGGAAAAGGGGAGGAGACCCUUGGGAGGACUCCAGGCAGCUGUGCUCC | 0.649 |
| GAAGGCAGUGCCUGCUCUGCUGUGAGCCGCCAGGAACCCUCCUCCUGUCAAUGGGGGUGUAGUAUUUUUGCCAAAAUAUCAUGUUCAAUUUCAGUAGUUUGAUCAGUUGA | 0.71 |
| AUUAUGAAAAUUGUAUUAUAAUAUCUGGAAACACAACAUUUUCCUCUGGCAGGUGACUUUUGUACGAAAUGAAAAAAAAAAAACCUGUAUUUUUUUUGUUGUUCUUUUGU | 1.15 |
| AGAGACAUAUCGAGGUAGUUACAUAAAAUUAUUUUGUUUGGCAUUAUUUUUCUCACUCGAAGAAACUAUAUAGGGUUGUUUUUCCUUUAGCUUGUGCUCAAGUCCUCUUG | 0.599 |
| AAGAGGCUGUGCAGCUGGAAAGGAGAGCCCCAAGCCUGAGGCGCUCAGGCCCGCCUCCAACCCCGAGACCUCAGCUGUGCCUUAUCACAGAGAUGGCGCUGCAGGGCCCA | 0.246 |

Set 2 — method: RNA Bind-n-Seq; form: RNA; matrix: in vitro; tested at: not given; setting: RNA with constant flanks, ends assumed; baseline: input RNA pool; direction: higher = stronger binding
Target: RING finger protein unkempt homolog, zinc fingers 1-6, GST-SBP tag (UNK, Homo sapiens, UniProt Q9C0B0, residues 30-357)
UniProt Q9C0B0, sequence (30-357, looked up): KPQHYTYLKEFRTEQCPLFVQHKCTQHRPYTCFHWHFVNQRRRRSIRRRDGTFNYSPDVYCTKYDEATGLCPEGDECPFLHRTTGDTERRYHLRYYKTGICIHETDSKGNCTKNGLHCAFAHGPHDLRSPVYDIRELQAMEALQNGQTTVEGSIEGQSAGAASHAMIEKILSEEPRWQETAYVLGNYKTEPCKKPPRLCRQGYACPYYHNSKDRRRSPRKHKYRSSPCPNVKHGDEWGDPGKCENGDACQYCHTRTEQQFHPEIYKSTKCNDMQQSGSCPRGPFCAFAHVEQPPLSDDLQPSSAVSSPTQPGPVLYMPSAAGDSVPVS
Shared flanks, not repeated: GGGAGUUCUACAGUCCGACGAUC … CAACAGAGGAUUGAGCAUCA
| Strand | bound/input enrichment |
| --- | --- |
| AGACGUGCGCCACCACCGCCCACCUUAAAUUCUUACAGAUAAAAACUGUAUAUGUUUAUAAACCGUUAUAAAGAACUAUUUUAUAUAAUAGCUAUUAUCAUUGUAGAAAUGACUUACAAA | 0.966 ratio |
| AUUACUGUCUUGCUGAUCUUGCAUCUUUAAUGGAUAAAACAUUUGAGAGAAAGUUGCCUGUCCGUUCUUUAACAAUAUCACGGCUUAUAGACAACAUUUCCUCUCGGGAAGAGAUAGAUC | 0.33 ratio |
| CGUGGUGUUUCCUUUACUUUUGGAGCUGAUGUAGUCAGUAAAUUUCUGAAUCGUCAUGAUUCCGAUUUGAUUUGUCGAGCUCAUCAGGUGGUGGAAGAUGGAUAUGAAUUUUUUGCUAAA | 0.122 ratio |
| GGGGGCAAGGCCAAAAAGAAGAAGUGGUCCAAAGGCAAAGUUCGGGACAAGCUCAAUAACUCCGUCUUGUUUGACAAAGCUACCUAUGAUAAACUCUGUAAGGAAGUUCCCAACUAUAAA | 1.38 ratio |
| UCUGGUAUUACCCUCACCUGCAUUGGUUUUGUUUUUUGGGGUUUUUGUUGUUUGUUUGUUUUCCGAUUCACAGAACAUGAGAAUCCUUUUUGACAAGCCUUGGAUAGCUGGCUCUCUUCU | 0.33 ratio |
| AAGUUUGGAUUUGAAAUUAGUUUUCCUGAAUUUUGUUUAAAGGGAGUCACACUUAAGAAUUUCCGUACUUCUAAUUUAAAUACUGACUUCCUUGCCAAAAAGAUCAUACCAUCAAAGGAU | 0.451 ratio |
| AUUGUGGAGUAUCAGAACAAGGGCCGCGGGAACGAGUGCGUGCAGUACCAGCAUGUGUUACACCGAAAUCUCAUUUAUUUGGCUACCAUUGCAGAUGCCAGUCCAACCAGCACUUCAAAA | 0.204 ratio |
| GUAACCAUCUACCGGGAAGAAGGCAUCGUAGGAUUUUUUGCGGGUCUCAUUCCUCGCCUCCCCGGUGACAUCAUUUCUUUGUGGCUGUGUAACUCACUGGCCUAUCUCAUCAAUACCUAU | 0.571 ratio |
| GAUAUGUUUUAUAGGAAUUGGGCACUUAAGGAAAGCUUCAUAAAAGCCAUUGGUGUUGGACCCGGAUUUGAAUUGCAGCGGCUUGAAUUUGAUCUAUCUCCAUUAAACUUGGAUAUAGGC | 0.458 ratio |
| AUUGCCCCGGCAUCUGUCUUUGCUGGGGACUUAAGCUACGCCAUUGCUGGGUUGGUAUUUUCCGAAUACAAAGCCAGUGCACAGUGGUCUGCAGAGCUCUUGGUCAUCAAUUACCGGGGA | 0.123 ratio |
| AGAAAAAUCCAUCUCUCUGAAUUAAUGCUUGAGAAAUGCCCUUUUCCUGCUGGCUCAGAUUCCGCCCAAAAAUGGCAUUUGAUUAAACAGCAUACAGCUCCUGUGAGCCCACAUUCAACA | 0.189 ratio |

Set 3 — method: universal PBM; form: double-stranded DNA, one strand shown; matrix: in vitro; tested at: 600 nM; direction: higher = stronger binding
Target: Sal-like protein 4, full length isoform A (SALL4, Homo sapiens, UniProt Q9UJQ4, residues 1-1053)
UniProt Q9UJQ4, sequence (whole entry, looked up): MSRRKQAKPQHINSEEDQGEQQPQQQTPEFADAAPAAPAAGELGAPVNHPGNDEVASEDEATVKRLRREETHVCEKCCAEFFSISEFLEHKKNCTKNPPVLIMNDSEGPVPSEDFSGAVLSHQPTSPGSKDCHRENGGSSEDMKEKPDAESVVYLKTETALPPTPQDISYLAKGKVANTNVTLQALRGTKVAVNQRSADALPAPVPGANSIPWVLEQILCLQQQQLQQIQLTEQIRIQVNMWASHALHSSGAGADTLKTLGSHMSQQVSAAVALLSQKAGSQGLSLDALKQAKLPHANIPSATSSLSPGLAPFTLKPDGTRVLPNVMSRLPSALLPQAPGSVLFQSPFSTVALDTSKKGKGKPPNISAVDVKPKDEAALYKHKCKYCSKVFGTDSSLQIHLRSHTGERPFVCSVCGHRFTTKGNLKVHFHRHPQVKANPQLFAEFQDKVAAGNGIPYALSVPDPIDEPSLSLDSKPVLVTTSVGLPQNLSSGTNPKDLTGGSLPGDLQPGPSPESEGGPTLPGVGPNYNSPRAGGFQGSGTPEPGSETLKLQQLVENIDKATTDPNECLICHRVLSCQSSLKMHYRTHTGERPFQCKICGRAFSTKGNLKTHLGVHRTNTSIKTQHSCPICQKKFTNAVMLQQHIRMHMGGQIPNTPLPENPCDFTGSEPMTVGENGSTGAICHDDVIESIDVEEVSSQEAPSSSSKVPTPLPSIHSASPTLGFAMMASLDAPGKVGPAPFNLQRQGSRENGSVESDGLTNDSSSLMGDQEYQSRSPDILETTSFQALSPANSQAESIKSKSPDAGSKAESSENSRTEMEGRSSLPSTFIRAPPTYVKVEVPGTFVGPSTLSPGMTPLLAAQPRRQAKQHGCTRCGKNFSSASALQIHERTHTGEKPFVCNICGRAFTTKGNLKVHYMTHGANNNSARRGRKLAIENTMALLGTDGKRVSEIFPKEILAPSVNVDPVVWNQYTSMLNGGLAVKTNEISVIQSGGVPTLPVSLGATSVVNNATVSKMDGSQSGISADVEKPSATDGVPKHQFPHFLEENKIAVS
Setting: 8-mer, flanks averaged, mean of replicates
| Strand | E-score |
| --- | --- |
| ACATTAAG | 0.283 |
| AGCAACTC | -0.149 |
| TGTGTAAA | 0.287 |
| ATAGACGG | 0.128 |
| AATTGCCG | 0.00356 |
| AAACTGAC | -0.0983 |
| GCTCAACA | -0.0536 |
| AAAATTCT | 0.215 |
| AGTCCACT | -0.0474 |
| GGATGTTA | -0.014 |
| AAGCGGGG | -0.113 |
| GAACCCAC | -0.225 |
| AGGCGACA | -0.301 |
| ATAAGTAA | 0.384 |
| ATGCCAAG | 0.0365 |
| AAAACGGT | -0.0471 |
| ACGTACTA | 0.103 |
| ATGGGAAA | 0.0238 |
| GCTTAGAC | -0.0827 |
| AAGCCCAG | -0.172 |
| ATTTCGGA | 0.24 |
| AAATCCGC | -0.205 |
| AGGTACAG | 0.0462 |
| TATTGAGA | 0.299 |
| AATCATCT | 0.158 |

Set 4 — method: protein-binding microarray; form: double-stranded DNA, one strand shown; matrix: in vitro; tested at: 250 nM; setting: 60-bp whole probe; together with: salmon DNA 0.4 mg/ml; baseline: random background probes; direction: higher = stronger binding; shared flanks, not repeated: GCCTAGCAC … GTCTTGATTCGCTTGACGCTGCTG
Target: Interferon regulatory factor 7, full length, phosphomimetic (IRF7, Homo sapiens, UniProt Q92985, residues 1-503, S101K/S471D/S472D/S475D/S476D/S477D/S483D/S484D/S487D)
UniProt Q92985, sequence (whole entry, unmodified, looked up): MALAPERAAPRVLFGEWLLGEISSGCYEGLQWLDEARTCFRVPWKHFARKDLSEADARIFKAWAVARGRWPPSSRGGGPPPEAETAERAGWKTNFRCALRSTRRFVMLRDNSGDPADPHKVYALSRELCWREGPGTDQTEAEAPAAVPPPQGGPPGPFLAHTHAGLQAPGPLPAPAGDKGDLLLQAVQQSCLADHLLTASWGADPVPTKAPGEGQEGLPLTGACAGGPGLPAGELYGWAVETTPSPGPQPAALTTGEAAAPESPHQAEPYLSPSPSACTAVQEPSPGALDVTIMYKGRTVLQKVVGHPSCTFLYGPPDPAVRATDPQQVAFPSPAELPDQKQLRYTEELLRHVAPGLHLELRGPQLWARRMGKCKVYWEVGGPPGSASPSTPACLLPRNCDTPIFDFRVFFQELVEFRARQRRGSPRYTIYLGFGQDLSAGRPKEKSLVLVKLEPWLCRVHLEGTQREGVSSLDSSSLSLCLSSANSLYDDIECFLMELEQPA
| Strand | log fluorescence |
| --- | --- |
| TTAGATCTCAGTAACGATTAGTGCTAG | 0.398 z-score |
| TCAGATTACATATATGTTACTGTGCTA | 0.423 z-score |
| GACGGATTCGGGTTTCGGGACGTGCTA | 4.92 z-score |
| CTAGGACTGGACTATCGGTTAGTGCTA | 0.0881 z-score |
| GACGATATCCGGTATCGAGACGTGCTA | 0.352 z-score |
| TCAAATTTTGTCATCTAACTGTGCTAG | -0.192 z-score |
| GACGATCCCAGACTGGAGACGTGCTAG | -0.259 z-score |
| GACGGTTTCCTTTTCCAGACGTGCTAG | 6.14 z-score |
| TTAGCTATCGGGTATCGGTTAGTGCTA | 0.266 z-score |
| TCACTTTGCTTTCTCCCACTGTGCTAG | 1.48 z-score |
| TCATTTTTCTAAACCATACTGTGCTAG | 1.41 z-score |
| TTAGATATCGGGTTTCTATTAGTGCTA | 2.06 z-score |
| TTAGGACTGGGGTTTTGGTTAGTGCTA | 0.422 z-score |
| GGCCCAGGAGGAGGCCCCTCGTGCTAG | -0.139 z-score |
| TTAGGTCTCCTTCTCCCTTAGTGCTAG | 0.283 z-score |
| TTAGATCTCAGTCCCGATTAGTGCTAG | 0.319 z-score |
| GACGGTTTCGGGTATCAGGACGTGCTA | 7.3 z-score |
| TTAGGACTGCCACTGCTTTAGTGCTAG | -0.495 z-score |
| TACGGTCTCCTTTTCCTGACGTGCTAG | 1.47 z-score |
| GACGATATCGGTTATCGAGACGTGCTA | 0.197 z-score |
| TCAGTTGTGATTCTTTCACTGTGCTAG | 0.127 z-score |
| GACGTACTGAGTCTCGAGACGTGCTAG | 0.321 z-score |

Some of these lines once more (set 3):
| Strand | E-score |
| --- | --- |
| AAATCCGC | -0.205 |
| AGGTACAG | 0.0462 |
| TATTGAGA | 0.299 |
| AATCATCT | 0.158 |
